Experimental data pooled from the literature.
Protocols differ between the studies behind these lines.
Organism: Enterococcus faecium

For CC[P+](CC)(CC)[Au-][S+](C[C@H]1O[C@H](O[C@H]2O[C@H](COC(C)=O)[C@@H](OC(C)=O)[C@H](OC(C)=O)[C@H]2OC(C)=O)[C@H](OC(C)=O)[C@@H](OC(C)=O)[C@@H]1OC(C)=O)[Au-][P+](CC)(CC)CC.[Cl-], the MIC was 0.05 µM (ATCC 700221).
The MIC of CNC(CC(C)C)C(=O)NC1C(=O)NC(CC(N)=O)C(=O)NC2C(=O)NC3C(=O)NC(C(=O)NC(C(=O)NCCCNC(=N)N)c4cc(O)cc(O)c4-c4cc3ccc4O)C(O)c3ccc(c(Cl)c3)Oc3cc2cc(c3OC2OC(CO)C(O)C(O)C2OC2CC(C)(N)C(O)C(C)O2)Oc2ccc(cc2Cl)C1O (centres unmarked) is reported as 4 µg/mL (ATCC BAA-2317 VanA; −POPE).
With C=C(NC(=O)C(=C)NC(=O)c1csc(C2=NC3c4csc(n4)C4NC(=O)c5csc(n5)C(C(C)(O)C(C)O)NC(=O)C5CSC(=N5)C(=CC)NC(=O)C(C(C)O)NC(=O)c5csc(n5)C3(CC2)NC(=O)C(C)NC(=O)C(=C)NC(=O)C(Cc2ccc(O)cc2)NC(=O)C(C(C)CC)NC2C=Cc3c(C(C)O)cc(nc3C2O)C(=O)OC4C)n1)C(N)=O (centres unmarked) the MIC was 0.11 µg/mL (broth microdilution; ATCC 12952 VRE; 18 h, 37 °C).
CC1=C[C@@]2(C)C(=C(C)[C@H]3[C@@H]4C[C@H](C)C[C@H](C)[C@H]4[C@H]4Oc5ccc(cc5)C[C@]5(O)NC(=O)[C@]6(O[C@H]65)C(=O)[C@@H]2[C@@H]43)[C@H]1C gave an MIC of 6.3 µM (microbial growth, broth dilution; ATCC35667).
The MIC of CCOC(=O)c1ccc2c(c1)n(CC)[c]([Au-]([Cl])([Cl])[Cl])[n+]2CC is reported as 3.6 µM (broth dilution; DSM 20477; 20 h, 37 °C).
The MIC of CN(Cc1cc(N(C)C)c2c(c1O)C(=O)C1=C(O)[C@]3(O)C(=O)C(C(N)=O)=C(O)[C@@H](N(C)C)[C@@H]3C[C@@H]1C2)CC(C)(C)C is reported as 0.25 µg/mL (494, Tet M and Tet L).
For Cc1cc(/C=C2\Sc3ccccc3N2CCCN2CCCC2)c2ccccc2[n+]1C, the MIC was 32 µg/mL (microbial growth, broth dilution; ATCC49624).
For CCC1(C)CCN(Cc2cc(N(C)C)c3c(c2O)C(=O)C2=C(O)[C@]4(O)C(=O)C(C(N)=O)=C(O)[C@@H](N(C)C)[C@@H]4C[C@@H]2C3)CC1, the MIC was 1 µg/mL (494, Tet M and Tet L).
The MIC of CNC(CC(C)C)C(=O)NC1C(=O)NC(CC(N)=O)C(=O)NC2C(=O)NC3C(=O)NC(C(=O)NC(C(=O)NCCCNC(=N)N)c4cc(O)cc(O)c4-c4cc3ccc4O)C(O)c3ccc(c(Cl)c3)Oc3cc2cc(c3OC2OC(CO)C(O)C(O)C2OC2CC(C)(NCc3ccc(-c4ccc(Cl)cc4)cc3)C(O)C(C)O2)Oc2ccc(cc2Cl)C1O (centres unmarked) is reported as 2.5 µg/mL (ATCC BAA-2317 VanA; together with: +LTA 100 µg/mL).
CN(C)c1cc(CN2CCCC2)c(O)c2c1C[C@H]1C[C@H]3[C@H](N(C)C)C(O)=C(C(N)=O)C(=O)[C@@]3(O)C(O)=C1C2=O has an MIC of 2 µg/mL (494, Tet M and Tet L).
The MIC of CC(C)C[C@H](NC(=O)[C@H](CC(N)=O)NC(=O)[C@H](CCCNC(=N)N)NC(=O)[C@@H](CC(C)C)NC(=O)[C@H](Cc1ccc2ccccc2c1)NC(=O)[C@H](CC(=O)O)NC(=O)[C@H](CCCCN)NC(=O)[C@@H](CC(C)C)NC(=O)[C@H](CCCNC(=N)N)NC(=O)[C@H](CCC(N)=O)NC(=O)[C@@H](NC(=O)[C@@H](CC(C)C)NC(=O)[C@H](CCCNC(=N)N)NC(=O)[C@H](CCCCN)NC(=O)[C@H](Cc1ccc(C(F)(F)F)cc1)NC(=O)CN)C(C)C)C(=O)N[C@H](C(N)=O)C(C)C is reported as 3.1 µM (broth microdilution; ATCC 51559).
